Experimental data of several laboratories.
Protocols differ between the studies behind these lines. Converted amounts (≈) assume the structure as drawn.
Sequence of UniProt Q00532 (whole entry, looked up): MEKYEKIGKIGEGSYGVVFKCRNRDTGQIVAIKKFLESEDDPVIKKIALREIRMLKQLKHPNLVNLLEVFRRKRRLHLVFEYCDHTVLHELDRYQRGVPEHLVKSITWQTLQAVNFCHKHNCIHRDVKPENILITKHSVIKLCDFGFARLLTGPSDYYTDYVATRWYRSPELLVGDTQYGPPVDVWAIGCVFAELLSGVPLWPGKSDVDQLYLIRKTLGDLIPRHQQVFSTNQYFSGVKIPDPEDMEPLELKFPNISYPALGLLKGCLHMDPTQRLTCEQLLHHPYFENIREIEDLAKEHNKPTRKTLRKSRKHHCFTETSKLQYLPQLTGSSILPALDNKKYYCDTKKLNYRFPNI

Structure (SMILES) | target or system | assay | test system | conditions | endpoint | value
COc1ccc(-c2cc(C(F)(F)F)c3c(N)c(C(=O)Nc4cccc(C)c4OC)sc3n2)cc1 | Mycobacterium tuberculosis | microbial growth | H37RV | – | IC50 | > 100 µM
Cc1cccc(CSc2nccc(OCCOc3cc(=O)oc4ccccc34)n2)c1 | Human coronavirus 229E | cytopathic effect | A549 | 3.13 µM | inhibition | 20.4%
Cc1ncc([N+](=O)[O-])n1CCO | Burkholderia cenocepacia | microbial growth | J2315 | – | MIC | > 256 µg/mL
Cc1cccc(NC(=O)c2sc3nc(-c4cccs4)cc(C(F)(F)F)c3c2N)c1 | Mycobacterium tuberculosis | microbial growth | H37RV | – | IC50 | > 100 µM
Nc1ncnc2c([C@@H]3N[C@H](CO)[C@@H](O)[C@H]3O)c[nH]c12 | unidentified influenza virus | viral replication, inhibitor | MDCK | 3 µM | inhibition | 0.3%
O=c1cc(OCCCOc2ccnc(SCc3ccc(F)cc3)n2)c2cc(F)ccc2o1 | Human coronavirus 229E | cytopathic effect | A549 | 12.5 µM | inhibition | 41.1%
COc1c(N2C[C@@H]3CCCN[C@@H]3C2)c(F)cc2c(=O)c(C(=O)O)cn(C3CC3)c12 | Mycolicibacterium fortuitum | microbial growth | ATCC6841 | – | MIC | 0.03 µM
CCCCCCC/C=C/C(=O)N1C(=O)/C(=C(\O)C2CCNCC2)C(=O)C1CC(C)C (stereo not drawn) | Burkholderia cepacia | microbial growth | ATCC25416 | – | MIC | 50 µg/mL
Cc1cccc(CNC(=O)c2sc3nc(-c4ccc5c(c4)OCO5)cc(C(F)(F)F)c3c2N)c1C | Mycobacterium tuberculosis | microbial growth | H37RV | – | IC50 | > 100 µM
N#Cc1cncc(Cn2c(=S)[nH]c3ccc(Cl)cc3c2=O)c1 | Mycobacterium tuberculosis | microbial growth | H37RV | – | MIC90 | > 100 µM
CC(=O)C1=C(O)C(CC(C)C)NC1=O (stereo not drawn) | Burkholderia cepacia | microbial growth | ATCC25416 | – | MIC | > 200 µg/mL
CCOC(=O)C1=C[C@@H](OC(CC)CC)[C@H](NC(C)=O)[C@@H](N)C1 | Human coronavirus 229E | cytopathic effect | A549 | 6.25 µM | inhibition | 34.1%
Cc1cccc(NC(=O)c2sc3nc(-c4ccccc4)cc(C(F)(F)F)c3c2N)c1C | Mycobacterium tuberculosis | microbial growth | H37RV | – | IC50 | > 100 µM
C[C@@H](O)[C@H]1C(=O)N2C(C(=O)O)=C(S[C@@H]3CN[C@H](C(=O)N(C)C)C3)[C@H](C)[C@H]12 | Burkholderia cenocepacia | microbial growth | J2315 | – | MIC | 16 µg/mL
CC(c1cncnc1)n1c(=S)[nH]c2ccc(Cl)cc2c1=O (stereo not drawn) | Mycobacterium tuberculosis | microbial growth | H37RV | – | MIC90 | ≥ 100 µM
[2H]c1c([2H])c([C@]2([2H])CCCN2C(=O)C(C)(C)Oc2ccc3cn[nH]c3c2)c([2H])c([2H])c1C([2H])([2H])[2H] | Cyclin-dependent kinase-like 1 (CDKL1, Homo sapiens, UniProt Q00532) | binding, competition with immobilised ligand | – | 1 µM | remaining binding | 66%
CC(=O)OCc1cc2[nH]c(=O)n(Cc3cccnc3)c(=O)c2cc1Cl | Mycobacterium tuberculosis | microbial growth | H37RV | – | MIC90 | > 100 µM
CCCCC(=O)N1C(=O)/C(=C(/C)O)C(=O)C1CC(C)C (stereo not drawn) | Burkholderia cepacia | microbial growth | ATCC25416 | – | MIC | > 200 µg/mL
COC(=O)OCOc1c2n(ccc1=O)N([C@@H]1c3ccccc3SCc3c1ccc(F)c3F)[C@@H]1COCCN1C2=O | Influenza A virus | viral replication, inhibitor | H3N2 | – | EC50 | 0.00323 µM
O=c1c2cc(Cl)ccc2[nH]c(=S)n1C(CCc1ccccc1)c1cccnc1 (stereo not drawn) | Mycobacterium tuberculosis | microbial growth | H37RV | – | MIC90 | > 100 µM
Nc1c(C(=O)N2CCOCC2)sc2nc(-c3ccoc3)ccc12 | Mycobacterium tuberculosis | microbial growth | H37RV | – | IC50 | 60 µM
CCCCCCC/C=C/C(=O)N1C(=O)/C(=C(\O)c2ccc(F)cc2)C(=O)C1CC(C)C (stereo not drawn) | Burkholderia cepacia | microbial growth | ATCC25416 | – | MIC | > 200 µg/mL
O=C(O)c1cn(C2CC2)c2cc(N3CCNCC3)c(F)cc2c1=O | Burkholderia cenocepacia | microbial growth | J2315 | – | MIC | 4 µg/mL
NC(=O)c1ccc(Cn2c(=S)[nH]c3ccc(Cl)cc3c2=O)cn1 | Mycobacterium tuberculosis | microbial growth | H37RV | – | MIC90 | > 100 µM
COc1ccc(-c2cc(C(F)(F)F)c3c(N)c(C(=O)N4CC(C)OC(C)C4)sc3n2)cc1 (stereo not drawn) | Mycobacterium tuberculosis | microbial growth | H37RV | – | IC50 | > 50 µM
CCCCCCC/C=C/C(=O)N1CC(=O)/C(=C(\C)O)C1=O | Burkholderia cepacia | microbial growth | ATCC25416 | – | MIC | 200 µg/mL
COc1cccc(-c2cc(C(F)(F)F)c3c(N)c(C(=O)Nc4cccc(C)c4C)sc3n2)c1 | Mycobacterium tuberculosis | microbial growth | H37RV | – | IC50 | > 100 µM
Cc1cc2c(=O)n(Cc3cccnc3)c(=S)[nH]c2cn1 | Mycobacterium tuberculosis | microbial growth | H37RV | – | MIC90 | 56.3 µM (≈ 16 µg/mL)
OC(Cn1cncn1)(Cn1cncn1)c1ccc(F)cc1F | Candida tropicalis | microbial growth, broth dilution | ATCC13803 | – | MIC | 2 µg/mL
COc1ccc(-c2cc(C(F)(F)F)c3c(N)c(C(=O)Nc4c(C)cccc4C)sc3n2)cc1 | Mycobacterium tuberculosis | microbial growth | H37RV | – | IC50 | > 100 µM

For quick reference, copied from above:
Structure (SMILES) | target or system | assay | test system | conditions | endpoint | value
COc1ccc(-c2cc(C(F)(F)F)c3c(N)c(C(=O)Nc4cccc(C)c4OC)sc3n2)cc1 | Mycobacterium tuberculosis | microbial growth | H37RV | – | IC50 | > 100 µM
Cc1cccc(CSc2nccc(OCCOc3cc(=O)oc4ccccc34)n2)c1 | Human coronavirus 229E | cytopathic effect | A549 | 3.13 µM | inhibition | 20.4%
